Published values of several laboratories.
Each numbered part is a random draw from the data of one study; scales do not carry over between parts. Positions count from the first letter of the parent shown.
Sequence of UniProt Q9P2K8 (whole entry, unmodified, looked up): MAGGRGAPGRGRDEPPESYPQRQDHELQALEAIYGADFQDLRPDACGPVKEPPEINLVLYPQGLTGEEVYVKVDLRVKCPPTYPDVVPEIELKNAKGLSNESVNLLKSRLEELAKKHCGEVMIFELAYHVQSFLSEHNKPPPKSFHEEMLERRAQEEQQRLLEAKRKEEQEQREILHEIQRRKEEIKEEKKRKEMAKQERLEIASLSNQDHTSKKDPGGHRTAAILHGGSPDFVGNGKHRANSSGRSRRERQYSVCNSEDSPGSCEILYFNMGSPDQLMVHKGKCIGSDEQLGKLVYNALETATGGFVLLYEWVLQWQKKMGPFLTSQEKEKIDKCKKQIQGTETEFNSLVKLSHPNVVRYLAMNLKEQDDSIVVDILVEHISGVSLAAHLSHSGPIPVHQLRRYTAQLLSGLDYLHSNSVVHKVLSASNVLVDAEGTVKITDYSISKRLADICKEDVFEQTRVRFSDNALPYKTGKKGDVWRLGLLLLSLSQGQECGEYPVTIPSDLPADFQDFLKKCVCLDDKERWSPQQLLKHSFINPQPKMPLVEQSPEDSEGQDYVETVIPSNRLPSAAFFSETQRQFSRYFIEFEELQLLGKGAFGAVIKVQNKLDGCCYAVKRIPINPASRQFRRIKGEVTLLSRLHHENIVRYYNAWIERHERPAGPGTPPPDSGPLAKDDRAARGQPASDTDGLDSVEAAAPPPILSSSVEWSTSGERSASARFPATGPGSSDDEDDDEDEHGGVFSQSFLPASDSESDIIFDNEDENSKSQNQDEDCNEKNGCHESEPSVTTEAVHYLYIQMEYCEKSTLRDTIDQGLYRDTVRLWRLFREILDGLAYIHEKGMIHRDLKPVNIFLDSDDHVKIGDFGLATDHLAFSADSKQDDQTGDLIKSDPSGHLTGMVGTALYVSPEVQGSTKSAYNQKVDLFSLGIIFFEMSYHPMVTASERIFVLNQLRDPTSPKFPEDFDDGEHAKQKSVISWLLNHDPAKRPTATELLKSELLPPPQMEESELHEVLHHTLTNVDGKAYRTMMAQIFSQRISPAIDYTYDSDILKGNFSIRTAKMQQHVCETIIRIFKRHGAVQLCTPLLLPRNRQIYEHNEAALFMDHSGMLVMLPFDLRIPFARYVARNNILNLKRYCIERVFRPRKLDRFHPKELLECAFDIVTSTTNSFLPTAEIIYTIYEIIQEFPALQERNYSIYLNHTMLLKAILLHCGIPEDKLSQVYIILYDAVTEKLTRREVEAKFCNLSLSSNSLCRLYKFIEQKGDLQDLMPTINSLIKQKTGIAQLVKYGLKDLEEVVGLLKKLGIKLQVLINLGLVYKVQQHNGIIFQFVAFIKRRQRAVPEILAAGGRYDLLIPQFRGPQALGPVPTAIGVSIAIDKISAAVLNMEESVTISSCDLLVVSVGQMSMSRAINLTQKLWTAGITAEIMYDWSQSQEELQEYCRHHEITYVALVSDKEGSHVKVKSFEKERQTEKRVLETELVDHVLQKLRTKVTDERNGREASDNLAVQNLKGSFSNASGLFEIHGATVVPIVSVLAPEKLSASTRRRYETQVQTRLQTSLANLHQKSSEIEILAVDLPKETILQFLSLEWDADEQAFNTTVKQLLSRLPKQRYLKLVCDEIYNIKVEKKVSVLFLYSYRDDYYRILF

Study 1
Change: L8T
Target: ABI1, truncated, D143A, DHFR fusion (Arabidopsis thaliana)
Technique: DHFR PCA, deep sequencing
Medium: yeast
Setting: methotrexate growth selection, single substitutions
Reference: wild-type fitted maximum
Direction: higher = stronger binding
Starting sequence: PYL1, truncated, DHFR fusion (Arabidopsis thaliana); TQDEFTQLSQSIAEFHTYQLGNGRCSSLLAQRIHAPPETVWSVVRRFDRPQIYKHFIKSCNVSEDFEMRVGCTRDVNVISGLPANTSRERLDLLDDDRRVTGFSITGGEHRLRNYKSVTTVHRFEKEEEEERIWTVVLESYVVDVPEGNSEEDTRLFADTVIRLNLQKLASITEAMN; partner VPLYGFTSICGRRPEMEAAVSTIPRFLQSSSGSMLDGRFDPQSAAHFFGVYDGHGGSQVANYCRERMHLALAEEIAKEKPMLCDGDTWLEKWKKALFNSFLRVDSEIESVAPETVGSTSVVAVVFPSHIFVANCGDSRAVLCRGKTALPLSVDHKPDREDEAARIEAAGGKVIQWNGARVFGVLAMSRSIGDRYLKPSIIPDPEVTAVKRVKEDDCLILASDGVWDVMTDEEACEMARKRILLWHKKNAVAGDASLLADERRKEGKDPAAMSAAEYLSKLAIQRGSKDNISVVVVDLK
setting | relative binding score [%]
together with: (+)-ABA 0 µM | -0.401
together with: (+)-ABA 0.11 µM | -3.87
together with: (+)-ABA 17 µM | 42.2
together with: (+)-ABA 0.032 µM | 5.21
together with: (+)-ABA 2500 µM | 105
together with: (+)-ABA 4.8 µM | 24.4

Study 2
Target: Sal-like protein 4, full length isoform A (SALL4, Homo sapiens, UniProt Q9UJQ4, residues 1-1053)
Sequence of UniProt Q9UJQ4 (whole entry, looked up): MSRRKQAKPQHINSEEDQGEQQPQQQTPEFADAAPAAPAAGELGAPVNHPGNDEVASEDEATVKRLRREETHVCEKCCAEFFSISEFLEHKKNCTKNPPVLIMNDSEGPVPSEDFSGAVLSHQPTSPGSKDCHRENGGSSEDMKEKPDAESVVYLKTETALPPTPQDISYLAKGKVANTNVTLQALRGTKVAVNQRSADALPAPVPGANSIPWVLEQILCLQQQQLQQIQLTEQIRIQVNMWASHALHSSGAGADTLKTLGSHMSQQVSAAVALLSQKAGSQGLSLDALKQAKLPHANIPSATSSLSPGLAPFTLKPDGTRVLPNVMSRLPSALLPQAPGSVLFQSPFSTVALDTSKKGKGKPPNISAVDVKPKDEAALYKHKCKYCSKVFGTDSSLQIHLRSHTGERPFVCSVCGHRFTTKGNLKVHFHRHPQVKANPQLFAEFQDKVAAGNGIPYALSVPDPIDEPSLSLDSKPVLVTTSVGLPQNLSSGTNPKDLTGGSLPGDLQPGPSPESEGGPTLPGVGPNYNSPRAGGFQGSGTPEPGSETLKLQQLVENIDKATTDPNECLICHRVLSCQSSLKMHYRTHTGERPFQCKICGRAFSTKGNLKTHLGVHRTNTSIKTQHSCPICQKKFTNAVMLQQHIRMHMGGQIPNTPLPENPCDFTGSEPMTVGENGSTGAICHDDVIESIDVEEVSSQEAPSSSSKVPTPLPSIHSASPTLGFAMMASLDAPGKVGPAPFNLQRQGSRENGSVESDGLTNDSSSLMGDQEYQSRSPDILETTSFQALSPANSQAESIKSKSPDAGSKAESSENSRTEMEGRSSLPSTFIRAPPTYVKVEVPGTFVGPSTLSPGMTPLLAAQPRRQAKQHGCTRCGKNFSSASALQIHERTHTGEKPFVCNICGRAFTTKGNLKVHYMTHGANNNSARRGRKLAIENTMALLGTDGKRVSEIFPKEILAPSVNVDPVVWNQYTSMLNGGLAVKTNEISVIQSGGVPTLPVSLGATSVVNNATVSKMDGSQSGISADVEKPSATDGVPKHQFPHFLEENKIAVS
Technique: universal PBM
Molecule type: double-stranded DNA, one strand shown
Medium: in vitro
Tested at: 600 nM
Setting: 8-mer, flanks averaged, mean of replicates
Direction: higher = stronger binding
Sequence | E-score
ATAATCCA | 0.284
ACGACGCG | -0.103
CCCCCGTC | -0.312
GAAATAGA | 0.242
GGAAGCCC | -0.317
ATGCTCCG | -0.216
ACAGTCCT | -0.0461
GGGTTGAA | -0.0721

Other studies, line by line
Compound | tested on | test | test system | setting | scale | measurement | value
O=C(O)c1ccccc1 | Plasmodium berghei | inhibitor | Huh-7, GFP-expressing sporozoites, liver stage | 10 µM, 24 h | reference: untreated control | infection rate | 84.7%
CO[C@H]1CC[C@H](CNc2ccc(S(=O)(=O)NC(=O)c3ccc(N4CCN(CC5=C(c6ccc(Cl)cc6)CC(C)(C)CC5)CC4)cc3Oc3cnc4[nH]ccc4c3)cc2[N+](=O)[O-])CC1 | eIF-2-alpha kinase GCN2, C-terminal kinase domain (EIF2AK4, Homo sapiens, UniProt Q9P2K8, S808G) | cell-free assay, competition with immobilised ligand | – | 1 µM | – | remaining binding | 96%

For quick reference, copied from above (study 1):
setting | relative binding score [%]
together with: (+)-ABA 2500 µM | 105
together with: (+)-ABA 0.032 µM | 5.21
